Measured values pooled from the literature.
Every numbered part comes from another study and shows a few of its results, in no order. Changes are numbered by the printed parent chain.
Sequence of UniProt O15294 (whole entry, looked up): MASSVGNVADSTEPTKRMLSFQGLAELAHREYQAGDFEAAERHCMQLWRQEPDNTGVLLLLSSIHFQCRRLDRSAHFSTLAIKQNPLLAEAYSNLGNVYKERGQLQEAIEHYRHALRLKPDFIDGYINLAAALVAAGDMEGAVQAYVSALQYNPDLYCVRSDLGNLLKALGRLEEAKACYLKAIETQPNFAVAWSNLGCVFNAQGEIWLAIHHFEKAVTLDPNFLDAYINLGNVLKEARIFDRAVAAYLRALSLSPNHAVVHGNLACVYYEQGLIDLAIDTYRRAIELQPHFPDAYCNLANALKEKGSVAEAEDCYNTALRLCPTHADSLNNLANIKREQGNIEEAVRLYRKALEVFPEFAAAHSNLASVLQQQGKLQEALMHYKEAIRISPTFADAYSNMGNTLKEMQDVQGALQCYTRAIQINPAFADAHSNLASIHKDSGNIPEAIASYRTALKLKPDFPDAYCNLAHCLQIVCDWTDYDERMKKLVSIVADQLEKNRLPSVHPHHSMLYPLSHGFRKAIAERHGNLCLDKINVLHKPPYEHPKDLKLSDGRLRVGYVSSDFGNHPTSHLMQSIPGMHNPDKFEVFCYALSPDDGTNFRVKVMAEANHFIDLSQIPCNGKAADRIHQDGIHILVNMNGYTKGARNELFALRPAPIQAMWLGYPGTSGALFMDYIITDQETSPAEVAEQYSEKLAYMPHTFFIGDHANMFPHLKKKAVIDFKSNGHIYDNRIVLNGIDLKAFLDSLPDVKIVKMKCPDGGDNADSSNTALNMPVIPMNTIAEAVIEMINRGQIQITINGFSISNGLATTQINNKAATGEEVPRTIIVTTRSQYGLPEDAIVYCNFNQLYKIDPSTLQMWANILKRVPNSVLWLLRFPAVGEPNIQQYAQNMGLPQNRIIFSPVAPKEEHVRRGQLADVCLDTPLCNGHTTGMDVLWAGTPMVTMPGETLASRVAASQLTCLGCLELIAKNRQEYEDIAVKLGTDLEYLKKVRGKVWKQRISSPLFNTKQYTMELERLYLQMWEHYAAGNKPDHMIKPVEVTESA

Set 1
Target: CEBPE, bZIP domain (human)
Method: DHFR protein complementation
Sample: yeast
Notes: single substitutions, most at no-binding floor
Relative to: wild-type JUN-FOS pair
Reading: higher = stronger binding
Starting sequence: JUN, bZIP domain (human); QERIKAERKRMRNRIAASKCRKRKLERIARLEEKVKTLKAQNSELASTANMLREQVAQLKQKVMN; partner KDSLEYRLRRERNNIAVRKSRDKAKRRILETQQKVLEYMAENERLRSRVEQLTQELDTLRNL
Substitution | binding fitness
R30C | -1.14 natural log
N42Y | -1.44 natural log
A46R | -0.929 natural log
L31A | -1.34 natural log
E44P | -1.54 natural log
K36R | -0.98 natural log
A57R | -1.24 natural log
I28A | -1.24 natural log

Set 2
Target: Centromere-binding protein 1, full length, His-tagged (CBF1, Saccharomyces cerevisiae, UniProt P17106, residues 1-351)
Sequence of UniProt P17106 (whole entry, looked up): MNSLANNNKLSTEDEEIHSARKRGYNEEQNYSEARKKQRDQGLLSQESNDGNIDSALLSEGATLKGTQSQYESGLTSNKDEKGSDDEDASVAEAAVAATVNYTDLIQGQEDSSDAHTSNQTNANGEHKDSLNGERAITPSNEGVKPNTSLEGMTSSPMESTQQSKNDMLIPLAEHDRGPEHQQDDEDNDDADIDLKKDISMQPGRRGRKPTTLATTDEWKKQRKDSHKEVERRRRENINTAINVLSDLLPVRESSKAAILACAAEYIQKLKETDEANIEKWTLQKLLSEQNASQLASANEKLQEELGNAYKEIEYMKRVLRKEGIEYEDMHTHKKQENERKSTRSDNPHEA
Method: competition protein-binding microarray
Form: double-stranded DNA, one strand shown
Sample: in vitro
Concentration: 2 µM
Notes: whole 60-bp probe, lowest competitor level
Added: Pho4 competitor, 0.05 µM
Reading: higher = stronger binding
Shared flanks, not repeated: … GTCTTGATTCGCTTGACGCTGCTG
Oligonucleotide | fluorescence intensity [a.u.]
CATCTGCCATTCAACAACGTGCCAGCAGGCCTATTA | 117
CACTACGGTCTTAGATTCGTGCGATTTCCGGCTACC | 80.5
AAATTACTAAGTTGGGTTGTGGGTGACGCCGTATGA | 52.3
ATCGAGGGAAAAAAAGTTGTGACGGAGGGGAAGGTT | 67.6
AAATTACTAAGTTGTGTTGTGGGTGACGCCGTATGA | 68.3
ACTCAGGTTATCAAGTTCGTGCAAACTATTCAAGAA | 74.5
ATCCTCATGTTCTTCCACGTGAAGATCGCCCGCTTC | 431
AGTGCCAGGTAAGTTGTCGTGGGTATCACCCGGAGA | 60.4

Further values, each from its own experiment
Substance | target or system | assay | system | conditions | scale | measurement | result
TEVPPQYIIEYWKLD | OGT (Homo sapiens, UniProt O15294) | binding, phage display NGS | peptide | concentration not given | relative to: input library | enrichment fold change | 5.37
NDUFS4 (Homo sapiens, UniProt O43181) | NDUFS3 (Homo sapiens, UniProt O75489) | cross-linking MS | cells | added: BSPNO |  | cross-linked residues | K98 to K232

A few entries again (set 1):
Substitution | binding fitness
A46R | -0.929 natural log
L31A | -1.34 natural log
E44P | -1.54 natural log
